Assay results pooled from the literature.
± gives the spread as reported.

Structure (SMILES) = C/C(=N\OCCCN1CCCCC1)c1ccc(C(F)(F)F)cc1; test system = mouse, plasma; setting = oral, 100 mg/kg once daily, day 1; endpoint = Cmax; value = 2320 ± 930 ng/mL
Structure (SMILES) = CCOP(=O)([O-])CNC(=O)CN1CCN(CC(=O)NCP(=O)([O-])OCC)CCN(CC(=O)NCP(=O)([O-])OCC)CCN(CC(=O)NCP(=O)([O-])OCC)CC1.[177Lu+3]; test system = octanol/water; setting = room temperature; endpoint = logP; value = -3.77 ± 0.37
Structure (SMILES) = COc1ccccc1-c1n[nH]c2nc(NC3CCN(C(=O)Cc4ccc(F)cc4F)CC3)ncc12; test = bead binding, competition bead pull-down, item: LINJ.31.2210; test system = Leishmania donovani axenic amastigote extract; setting = 10 µM; how to read = relative to: vehicle; endpoint = relative abundance; value = 1.09
Structure (SMILES) = CC(=O)CCC1C(=O)NC(C(C)C)C(=O)NC(Cc2cc(O)cc(F)c2)C(=O)N2CCCC(N2)C(=O)OC(C(C)=CC=CC(=O)N2CCCCO2)CC=CC=CC(O)C(C)C1O (stereo not shown); test system = male Sprague-Dawley rat, liver; setting = oral, 5 mg/kg; endpoint = AUC; value = 32800 ng·h/mL
Structure (SMILES) = COc1ccc(C([O-])=CC(=O)c2ccc(C(C)(C)C)cc2)cc1.[Ru+2].c1ccc(-c2ccccn2)nc1.c1ccc(-c2ccccn2)nc1; test system = zebrafish larvae; setting = 10 µM, 48 h, dark; how to read = relative to: normal; endpoint = viability; value = 0%
Structure (SMILES) = CC(C)Oc1c(NC(=O)c2ccc(NC(=O)[C@H](CC(N)=O)NC(=O)c3ccc(/N=N/c4ccccc4)cc3)cc2)ccc(C(=O)N/N=C/c2ccc(C(=O)O)cc2)c1O; test = absorbance; test system = DMSO; setting = 50 °C, PSS to ground state relaxation; endpoint = thermal half-life; value = 3.6 h
Structure (SMILES) = CC(CCC(=O)NCC(=O)O)C1CCC2C3CCC4CC(OC5OC(C(=O)O)C(O)C(O)C5O)CCC4(C)C3CC(O)C12C (stereo not shown); test system = human women; setting = dose not given, SLCO1B1 *14/*14; endpoint = plasma concentration; value = 9.13 ng/mL
Structure (SMILES) = CN1Cc2cc(Cl)ccc2-n2c(nnc2C2CCN(c3cccc(F)n3)CC2)C1; test system = Sprague-Dawley rat male, brainstem; setting = intravenous, 0.03 mg/kg; endpoint = AUC; value = 4.41 ng·h/mL
Structure (SMILES) = COc1cnc2cccc(N3CCc4c(cc(Cn5ccnc5)cc4-c4cn(C)nc4C(F)(F)F)C3=O)c2c1; test system = CD-1 mouse; setting = intraperitoneal, 150 mg/kg once daily, day 5, dose-escalation tolerability; how to read = relative to: day 1; endpoint = body weight change; value = 9.8%
Structure (SMILES) = CC[C@H](C)[C@H](NC(=O)[C@H](CCCCN)NC(=O)CNC(=O)[C@H](CC(C)C)NC(=O)[C@H](Cc1ccccc1)NC(=O)[C@H](CCCCN)NC(=O)[C@H](CO)NC(=O)[C@H](Cc1ccccc1)NC(=O)[C@H](Cc1c[nH]c2ccccc12)NC(=O)[C@H](CCC(N)=O)NC(=O)[C@@H](NC(=O)[C@H](Cc1ccccc1)NC(=O)CCCCCNC(=O)CN1CCN(CC(=O)O)CCN(CC(=O)O)CCN(CC(=O)O)CC1)C(C)C)C(=O)N[C@@H](CCC(=O)O)C(=O)N1CCC[C@H]1C(=O)N[C@@H](CC(=O)O)C(=O)N[C@H](C(=O)N[C@@H](CO)C(=O)N[C@@H](CCC(N)=O)C(=O)N[C@H](C(=O)N[C@@H](CCC(N)=O)C(=O)N[C@@H](CC(=O)O)C(=O)N1CCC[C@H]1C(=O)N[C@@H](CC(N)=O)C(=O)N[C@@H](CC(=O)O)C(=O)N[C@@H](CCC(N)=O)C(=O)N[C@@H](Cc1ccc(O)cc1)C(=O)N[C@@H](CCC(=O)O)C(=O)N1CCC[C@H]1C(=O)N[C@@H](Cc1ccccc1)C(=O)O)C(C)C)C(C)C [copper-64 labelled]; test system = C57BL/6 mice, male, tumour-free, kidneys; setting = 0.5 h; endpoint = tissue uptake; value = 148 ± 7.9 %ID/g
Structure (SMILES) = CCCCCCCCCCCCCCCC(=O)N[C@@H](CCC(=O)NCCOCCOCCC(=O)NCCOCCOCCC(=O)NCCCC[C@H](NC(=O)[C@H](CC(=O)O)NC(=O)[C@H](CC(C)C)NC(=O)[C@H](Cc1ccc(O)cc1)NC(=O)[C@H](CCCCN)NC(=O)[C@H](CO)NC(=O)[C@H](Cc1ccc(O)cc1)NC(=O)[C@H](CC(=O)O)NC(=O)[C@H](CO)NC(=O)[C@@H](NC(=O)[C@H](Cc1ccccc1)NC(=O)[C@@H](NC(=O)CNC(=O)[C@H](CCC(N)=O)NC(=O)[C@@H](CO)NC(=O)[C@@H](N)Cc1c[nH]cn1)[C@@H](C)O)[C@@H](C)O)C(=O)N[C@@H](CCCNC(=N)N)C(=O)N[C@@H](CCCNC(=N)N)C(=O)N[C@@H](C)C(=O)N[C@@H](CCC(N)=O)C(=O)N[C@@H](CC(=O)O)C(=O)N[C@@H](Cc1ccccc1)C(=O)N[C@H](C(=O)N[C@@H](CCC(N)=O)C(=O)N[C@@H](Cc1c[nH]c2ccccc12)C(=O)N[C@@H](CC(C)C)C(=O)N[C@@H](CC(C)C)C(=O)N[C@@H](CC(N)=O)C(=O)N[C@H](C(=O)NCC(=O)NCC(=O)N1CCC[C@H]1C(=O)N[C@@H](CO)C(=O)N[C@@H](CO)C(=O)NCC(=O)N[C@@H](C)C(=O)N1CCC[C@H]1C(=O)N1CCC[C@H]1C(=O)N1CCC[C@H]1C(=O)N[C@@H](CO)C(N)=O)[C@@H](C)O)C(C)C)C(=O)O; test system = rhesus monkey, female; setting = subcutaneous, 300 µg/kg, day 1, median; endpoint = Tmax; value = 4 h
Structure (SMILES) = O=C1NC2(CC2)COc2ncc(F)cc2[C@H]2COCCN2c2ccn3ncc1c3n2; test system = Sprague-Dawley rat, female; setting = oral, 20 mg/kg/day, end of treatment, 4-week repeated-dose toxicity; endpoint = body weight; value = 314 ± 41.6 g
Structure (SMILES) = CSCC[C@H](N)C(=O)N[C@@H](C)C(=O)N[C@@H](Cc1c[nH]c2ccccc12)C(=O)N[C@@H](Cc1c[nH]cn1)C(=O)N[C@@H](CC(=O)O)C(=O)N[C@@H](CC(=O)O)C(=O)N[C@@H](CCC(=O)O)C(=O)N[C@@H](CCC(=O)O)C(=O)N[C@@H](Cc1ccccc1)C(=O)N[C@@H](C)C(=O)N[C@@H](CCCNC(=N)N)C(=O)N[C@@H](CCCNC(=N)N)C(=O)N[C@@H](CCCNC(=N)N)C(=O)N[C@@H](CCCNC(=N)N)C(=O)NCCCCCC(=O)NCCCCC(NC(=O)CCCCCNC(=O)[C@H](CCCNC(=N)N)NC(=O)[C@H](CCCNC(=N)N)NC(=O)[C@H](CCCNC(=N)N)NC(=O)[C@H](CCCNC(=N)N)NC(=O)[C@H](C)NC(=O)[C@H](Cc1ccccc1)NC(=O)[C@H](CCC(=O)O)NC(=O)[C@H](CCC(=O)O)NC(=O)[C@H](CC(=O)O)NC(=O)[C@H](CC(=O)O)NC(=O)[C@H](Cc1c[nH]cn1)NC(=O)[C@H](Cc1c[nH]c2ccccc12)NC(=O)[C@H](C)NC(=O)[C@@H](N)CCSC)C(=O)NCCCCC(NC(=O)C(CCCCNC(=O)CCCCCNC(=O)[C@H](CCCNC(=N)N)NC(=O)[C@H](CCCNC(=N)N)NC(=O)[C@H](CCCNC(=N)N)NC(=O)[C@H](CCCNC(=N)N)NC(=O)[C@H](C)NC(=O)[C@H](Cc1ccccc1)NC(=O)[C@H](CCC(=O)O)NC(=O)[C@H](CCC(=O)O)NC(=O)[C@H](CC(=O)O)NC(=O)[C@H](CC(=O)O)NC(=O)[C@H](Cc1c[nH]cn1)NC(=O)[C@H](Cc1c[nH]c2ccccc12)NC(=O)[C@H](C)NC(=O)[C@@H](N)CCSC)NC(=O)CCCCCNC(=O)[C@H](CCCNC(=N)N)NC(=O)[C@H](CCCNC(=N)N)NC(=O)[C@H](CCCNC(=N)N)NC(=O)[C@H](CCCNC(=N)N)NC(=O)[C@H](C)NC(=O)[C@H](Cc1ccccc1)NC(=O)[C@H](CCC(=O)O)NC(=O)[C@H](CCC(=O)O)NC(=O)[C@H](CC(=O)O)NC(=O)[C@H](CC(=O)O)NC(=O)[C@H](Cc1c[nH]cn1)NC(=O)[C@H](Cc1c[nH]c2ccccc12)NC(=O)[C@H](C)NC(=O)[C@@H](N)CCSC)C(N)=O (stereo partly shown); test system = C57BL/6 mouse female, spleen; setting = dose not given, 6 h; how to read = relative to: total; endpoint = mean tissue distribution; value = 0.8%
